Measurements collected from several papers.
Numbered parts are unrelated; each lists some results of a single study.

Series 1 — method: RNA Bind-n-Seq; form: RNA; matrix: in vitro; concentration: 200 nM; notes: whole 134-nt RNA, ends assumed; added: 150 mM LiCl; reference: input library; direction: higher = stronger binding; each molecule: 7-deaza-guanosine replaces G
Target: Ras GTPase-activating protein-binding protein 1, full length (G3BP1, Homo sapiens, UniProt Q13283)
Sequence of UniProt Q13283 (whole entry, looked up): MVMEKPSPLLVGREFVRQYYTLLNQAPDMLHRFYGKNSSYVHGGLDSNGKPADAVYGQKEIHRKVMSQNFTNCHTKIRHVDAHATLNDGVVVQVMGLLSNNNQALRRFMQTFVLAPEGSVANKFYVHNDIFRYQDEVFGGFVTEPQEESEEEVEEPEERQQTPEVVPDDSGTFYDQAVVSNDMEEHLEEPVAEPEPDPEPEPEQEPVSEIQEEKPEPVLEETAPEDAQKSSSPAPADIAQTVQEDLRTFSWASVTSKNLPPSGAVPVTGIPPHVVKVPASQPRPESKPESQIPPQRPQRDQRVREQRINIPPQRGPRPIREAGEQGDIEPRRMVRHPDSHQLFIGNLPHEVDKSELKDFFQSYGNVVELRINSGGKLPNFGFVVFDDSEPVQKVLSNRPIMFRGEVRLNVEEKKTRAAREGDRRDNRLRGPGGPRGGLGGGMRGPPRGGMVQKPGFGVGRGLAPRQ
All sequences stand within: GGGAGUUCUACAGUCCGACGAUC … UGGAAUUCUCGGGUGUCAAGG
| Strand | log2 enrichment |
| --- | --- |
| GUCCUGUGCUACACAUCGUAUGUACCGAAUCGGGGUGGGGAAAAAGGGGUUUUUGGGGAAAGUAUUAUGUUACGCCGUUCGGAUCUGCAC | 0.17 |
| UGGCCCUGGUGGCAUGCGGGGAGGAAGAGGUGGCCUCAUGGAUCGUGGGGGUCCCGGUGGAAUGUUCAGAGGUGGCCGUGGUGGAGACAG | 0.429 |
| UGGGAGGUGGAUUUUGUUUAUUUUUUUAGCUCAUUUCCAGGGGUGGGAAUCUUUUUUUAAUAUGUGUCAUGAAUAAAGUUGUUUUUGAAA | -0.353 |
| CUCAAGUCCUGUGCUACACAUCGUAUGUACCGAAUCGGUUGGGUUGGGGUUGGAAAGUAUUAUGUUACGCCGUUCGGAUCUGCACUUCCA | 0.276 |
| CUGUGCUACACAUCGUAUGUACCGAAUCGGGGUUUUUUUGGGGAAAGGGGUUUUUUUGGGGAAAGUAUUAUGUUACGCCGUUCGGAUCUG | -0.211 |
| CUCAAGUCCUGUGCUACACAUCGUAUGUACCGAAUCGGCCGGGCCGGGCCGGGAAAGUAUUAUGUUACGCCGUUCGGAUCUGCACUUCCA | 0.186 |
| AGUCCUGUGCUACACAUCGUAUGUACCGAAUCGGAAAAAGGAAAAAGGAAAAAGGGGAAAGUAUUAUGUUACGCCGUUCGGAUCUGCACU | -1.15 |
| GCAGGAAGUAAAAACAAAUGGAAAUGCUUCAGAUAGUGGCAGGGGUGGGGGUUGCUAAGGAAAGGGUGGGAUGGGAGUGGGUAAAGAGUU | 0.0303 |
| UGGGUGAAGAGGGACAGUUACCUUCCUGUGGGCAGUCAUAAUCUCAAGGCGGCCGCCAAGGCCAAGCUAGGCUAUGAUCCCGUGGAGCUA | -0.978 |
| CUGUGCUACACAUCGUAUGUACCGAAUCGGGGUUUUUGGGGAAAAAGGGGAAAAAAAGGGGAAAGUAUUAUGUUACGCCGUUCGGAUCUG | -0.0379 |
| CUCAAGUCCUGUGCUACACAUCGUAUGUACCGAAUCGGGGCCGGCCGGGCCGGGAAAGUAUUAUGUUACGCCGUUCGGAUCUGCACUUCC | 0.665 |

Series 2 — method: RNA Bind-n-Seq; form: RNA; matrix: in vitro; concentration: 365 nM; reference: no-protein control; direction: higher = stronger binding
Target: RNA binding protein fox-1 homolog 2, RRM domain, GST-SBP tag (RBFOX2, Homo sapiens, UniProt O43251-10, residues 100-194)
Notes: natural RNA segment, single round, ends assumed
All sequences stand within: GGGAGUUCUACAGUCCGACGAUC … UGGAAUUCUCGGGUGCCAA
Construct (chain): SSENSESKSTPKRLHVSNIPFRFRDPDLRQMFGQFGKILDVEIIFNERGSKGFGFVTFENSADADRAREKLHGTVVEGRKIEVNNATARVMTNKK
| Strand | RBNS enrichment (R) |
| --- | --- |
| UUGGGCUGCCCCCAUCUCUCCCAACAAGGUGUACAUAUUCUGCGUAGAUGCUAGACCAACCAGCUUCCCAGGGUUCGUCGCUGUGAGGCGUAAGGGACAUGAAUUCUAGG | 0.278 |
| GAAUCCAAAGUGGACACCAUUAACAGGUCUUUGAAAUAUGCAUGUACUUUAUAUUUUCUAUAUUUGUAACUUUGCAUGUUCUUGUUUUGUUAUAUAAAAAAAUUGUAAAU | 23.2 |
| UAUAUUCUCUACACUCCAGCAUUAAUAUGUCUGUUUAAAAAUUACUAAUUCUCAAAUGGCUCAAGAACAUUAGAAUUUAAGUACCUUUUAGAGUAAUUAUUUUAAGCAAA | 0.463 |
| UGGACCUGUGAAGCCAUGGGCAGGUAGUGCCCUCUUGAGAGUCAUUUUAUUUGGCCACCUUCAGGUGAGACUAUCCAUAGACACAUGCUAGGAUAGGCCCCGCUGGGAGG | 0.369 |
| CUCUACAAAGCACAACGAAAAACAACAAAUGGAGUUGUGCUAUGUUGUAUUGCUUUGCACAAAAUUAGGAACAGGUGUUUGACAAUUGAAUUUGUUUUCUGUGAAUUCUA | 0.409 |
| UGAUCCACGAAGGUGGUGCCCACAUCUAUGUCUGCGGGGAUGCUCGAAAUAUGGCCAAAGAUGUGCAGAACACAUUCUAUGACAUCGUGGCCGAGUUUGGGCCCAUGGAG | 0.305 |
| UUCUGGAAAUGAUUAUUAAUCCACAAAGAAGAACUCUGUAAGCUUUUUCUUGAAUUGUAGCCAGUGAGAAAAGCAGAUAGACUGAAGAAUAUGAAGGAUAGCUGAGCUGU | 0.591 |
| AUUCCUUUCCCUUGAUGGGGCUUGUGAUGGACCCAAGGUCUACCUCAGACUUGAGUCUGUUUCCCCUUGAUAGCAUCAUGGUUCUGGCCUUUUCCACAUUCAAUGGAAGC | 0.225 |
| UCACUUUAAAGACUUGUGCUAUUUGGAAGCAAAGCUAUUUUUUUUGUCAGUGGAAUGCAGUUUUUUUACUAUUCCAUCAUGAGGAACAACAUAGAUUCCAUGAUCUUUUU | 0.767 |
| GUUGAUUAGUACAAGUGCAAUUUCAAAAAGAUCUUGAAAGUAAUAUAUUUAAUCAAUUAAAAUGUUUCUCUGUAAGUCGUCGAUGUUUCUGUUAAUACAGUUUCCUGAAG | 0.593 |
| GGUUCCCCAAAUCACUUCAAUCUCUUCGUCACAUAUUGGGGUGGUACCAAGGAAGGUGACCAGUAUUGUUUACAGAUGAUUUUCUAAGGAAAAGUUGAGGGGGACUUAGG | 0.592 |
| CUUGUUGGCCACUUUUCAGUCCUGAGAUGAGGGCCUGAGCCAGUCUUCUCUAGGGGUGGGAUGAGACUACUCACGAGGACCAAGGAACAGAGCCCAGAGAAACAGCAGCC | 0.289 |

Series 3 — method: EMSA with sequencing; form: double-stranded DNA, one strand shown; matrix: in vitro; concentration: 10 and 20 nM; reference: negative control set to 0; direction: higher = stronger binding
Target: Hepatocyte nuclear factor 3-alpha (Foxa1, Mus musculus, UniProt P35582, residues 1-468, full length assumed)
Sequence of UniProt P35582 (whole entry, looked up): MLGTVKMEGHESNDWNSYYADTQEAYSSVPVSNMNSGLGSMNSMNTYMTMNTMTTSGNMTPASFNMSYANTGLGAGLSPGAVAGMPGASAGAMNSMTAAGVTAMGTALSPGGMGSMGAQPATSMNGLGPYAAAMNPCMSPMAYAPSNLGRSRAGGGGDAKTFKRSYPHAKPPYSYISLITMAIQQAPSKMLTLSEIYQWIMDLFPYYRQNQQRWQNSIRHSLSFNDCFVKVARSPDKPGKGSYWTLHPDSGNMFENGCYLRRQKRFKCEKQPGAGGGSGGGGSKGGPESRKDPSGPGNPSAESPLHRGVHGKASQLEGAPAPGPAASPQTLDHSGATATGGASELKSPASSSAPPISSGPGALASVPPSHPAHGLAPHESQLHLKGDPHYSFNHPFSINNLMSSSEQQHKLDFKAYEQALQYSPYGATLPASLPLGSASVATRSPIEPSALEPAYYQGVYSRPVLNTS
Notes: whole designed probe, mean of two concentrations, ends assumed
All sequences stand within: GTGAGCGGTGCCCATTGATGGGGAAC … TTTCACTGGGATCGTGGGGAC
| Strand | normalised bound fraction [ratio] |
| --- | --- |
| ATATCAGGTTAAAAGAAACATTTCCTGGCAGATGCACAGCTCTGGAAAATTTTGTTTTCCAAACGTCTGGAAAACAAAAGGAAAGCTTCCTTTGTTTACATAGCCAAGAAGGTTGAGTGATGAGAATCAGAAAAGATTTTGAAGCAATACAAGATCTTCTCCTAGGGCCATTAGAGATCAGCTAATCTGTTCA | 0.489 |
| CACTGTAAAAACTTAGTCAATTTTTTTTTCTAAGAAAGAAAGTAAAGATAATAAAGACCTGTTACCCAATTCTGAGCAGAAGCTGAGTCACTGTGTAATCTCACTTCAACTACCGGCCTGCTTTCTCAAGGGTGAATCAATTGCTTTGAACAATGAATGTACTGAGTTCTTTCCAATTTTATCCTGCAGAATA | -0.0348 |
| ATTTTTCATACTTTATGCAACAATTTGTTATGAGATACCAAAGCTGAAGAATGAGGTGTTTGACCATATTCAAAGACCACATGTGTCAGGACTGTTTACATTTCTGAAAGTACTTAGGGCAATCACAGGATGAAAGCAGTGTGTACTAAATCCTCTGTCCACAGAATTCTGCAAATATTATGTGTCTTGAGGG | 0.37 |
| ATCTTCCCCCTCTTCCTTGCCCCACCAGCTCACCTACGGGGGTTATTTGCACAAAGGAAAATAAATAAAGCCGGCATTCGTTAACGCAGTTCTGGCGCAAACTGCTGTTTGCTCTGGATCTAACATGGTCCTTTGGCGACGCCAGGCTCCGGGAGAGCAAAGCACCGTGTCAGGGCCATGATCCGGGCTCGCC | 0.387 |
| ATCTTCCCCCTCTTCCTTGCCCCACCAGCTCACCTTCCCGGGTTATTTGCAGATAGGAAAATAAATAAAGCCGGCATTCGTTAATTCTCCCGTCGCGCAAACTGCTGTTTGCTCTGGATGAATCATGGTCCTTTGGCGACGCCAGGCTCCGGGAGAGCAAAGCACCGTGTCAGGGCCATGATCCGGGGTGGCC | 0.364 |
| TTATATCTAGGCTACAGCATGGAGATAATTGATACAAATATTTTCTTATCATCATGGTCCTCAAAGAAAGTACCAGGCCTAATTTGCAATCTAAGTAATCTTAAAAAGAAAGTTGTTTAGTAAAGCAATTTATTTCATAAGTCACTATTTCTTTCACCATAGCCATATACTATCTTATGCTTAGTAATGAATT | -0.0298 |
| AGATTGCTTTGTGATTGTTTTGCCAGATTTTGCTTTCACCCACAAAAACACTAAGCTCTGCCAACCAGTTCGGCGTTTTTGTAAGTTAGCAAAATAAACACTAAAGTGAAAACGCGGCTTTTGGGCGGGGCTCCCACAGGCTGGCTCCTTTTAAGTGGAATGTTGCTGTGCTGCCCTCTTGTGGCCATTTGGG | 0.255 |
| ATAGTGCAGAACCAGAAGGGTTGCCTAAAATGTACTAAAATAGAATTAATAAAATTAACATAACTCTTTAGAAATATTATACTTCAAGTCCATATTTACTTAGGGAGCATTATAAATTCCCTTATATAATTTCATCCATTGAATTACAAAAGACACGACAAAGGAGCTAATGGATATGATATTTACATTAACA | 0.491 |

Series 4 — method: protein-binding microarray; form: double-stranded DNA, one strand shown; matrix: in vitro; concentration: 250 nM; notes: 60-bp whole probe; added: salmon DNA 0.4 mg/ml; reference: random background probes; direction: higher = stronger binding; all sequences stand within: GCCTAGCAC … GTCTTGATTCGCTTGACGCTGCTG
Target: Interferon regulatory factor 5, full length, phosphomimetic (IRF5, Homo sapiens, UniProt Q13568-2, residues 1-514, K96S/S451D/S453D/S456D/S462D)
| Strand | log fluorescence [z-score] |
| --- | --- |
| TCAGTTTTCAGTTTCACACTGTGCTAG | 5.1 |
| TTAGGTGTCGACACTGGGTTAGTGCTA | -0.111 |
| TTCCTTTACTTTCTTTTTTTGTGCTAG | 3.61 |
| TTAGGTCTCGGTATTGGTTAGTGCTAG | 0.878 |
| GACGATATCAGTATCGTGACGTGCTAG | 1.86 |
| TTAGGGTTCGGGTATCGGTTAGTGCTA | 3.25 |
| TCAACTTTGACTTAAGAACTGTGCTAG | 0.0138 |
| CCCCCAGGATTCAATTACCAGTGCTAG | -0.243 |
| TTCGTTTTGTGTCTGGGCATGTGCTAG | 0.625 |
| CTCATTTTCGTTTTGTGTCTGTGCTAG | 7.01 |
| TTAGGTATCCTTTTGCTTTAGTGCTAG | 0.647 |
| CAGGGTCTCGCTTCATCTCCGTGCTAG | -0.362 |
| CACAGGCTGCACAGAATGTAGTGCTAG | -0.259 |
| GAGCTCCTCCTTCTCTAACCGTGCTAG | -0.416 |
| TTACGTCTCGGTTTCGGTTAGTGCTAG | 9.11 |
| ACACATCTCACTCTAATCTCGTGCTAG | 0.601 |
| TTAGGACGGCTTCTCCTTTAGTGCTAG | -0.299 |
| TTAGGGCTGCTACTGCTTTAGTGCTAG | -0.595 |
| TTAGGTCCCGGTATCGGTTAGTGCTAG | 4.53 |
| TTAGCTATCGGGTATCGATTAGTGCTA | 6.6 |
| TCATCTCTGGTTCTTGCACTGTGCTAG | 0.549 |
| TGAGCACCCAGAGCCGCCTGGTGCTAG | -0.387 |
| GACGATCTCAGTTTAGAGACGTGCTAG | -0.21 |

Some of these lines once more (series 2):
| Strand | RBNS enrichment (R) |
| --- | --- |
| UUCUGGAAAUGAUUAUUAAUCCACAAAGAAGAACUCUGUAAGCUUUUUCUUGAAUUGUAGCCAGUGAGAAAAGCAGAUAGACUGAAGAAUAUGAAGGAUAGCUGAGCUGU | 0.591 |
| GUUGAUUAGUACAAGUGCAAUUUCAAAAAGAUCUUGAAAGUAAUAUAUUUAAUCAAUUAAAAUGUUUCUCUGUAAGUCGUCGAUGUUUCUGUUAAUACAGUUUCCUGAAG | 0.593 |
| UCACUUUAAAGACUUGUGCUAUUUGGAAGCAAAGCUAUUUUUUUUGUCAGUGGAAUGCAGUUUUUUUACUAUUCCAUCAUGAGGAACAACAUAGAUUCCAUGAUCUUUUU | 0.767 |
| GAAUCCAAAGUGGACACCAUUAACAGGUCUUUGAAAUAUGCAUGUACUUUAUAUUUUCUAUAUUUGUAACUUUGCAUGUUCUUGUUUUGUUAUAUAAAAAAAUUGUAAAU | 23.2 |
| UUGGGCUGCCCCCAUCUCUCCCAACAAGGUGUACAUAUUCUGCGUAGAUGCUAGACCAACCAGCUUCCCAGGGUUCGUCGCUGUGAGGCGUAAGGGACAUGAAUUCUAGG | 0.278 |
| CUCUACAAAGCACAACGAAAAACAACAAAUGGAGUUGUGCUAUGUUGUAUUGCUUUGCACAAAAUUAGGAACAGGUGUUUGACAAUUGAAUUUGUUUUCUGUGAAUUCUA | 0.409 |
| GGUUCCCCAAAUCACUUCAAUCUCUUCGUCACAUAUUGGGGUGGUACCAAGGAAGGUGACCAGUAUUGUUUACAGAUGAUUUUCUAAGGAAAAGUUGAGGGGGACUUAGG | 0.592 |
| CUUGUUGGCCACUUUUCAGUCCUGAGAUGAGGGCCUGAGCCAGUCUUCUCUAGGGGUGGGAUGAGACUACUCACGAGGACCAAGGAACAGAGCCCAGAGAAACAGCAGCC | 0.289 |
